Earlier results, collected from citations in different studies.
Protocols differ between the studies behind these lines. Values joined by “and” are separate records of one study, mostly repeats; a detail may differ. Numbers after ± are the reported error. ≈ marks a conversion by molar mass, not a printed value.
Sequence of UniProt Q9BUB5 (whole entry, looked up): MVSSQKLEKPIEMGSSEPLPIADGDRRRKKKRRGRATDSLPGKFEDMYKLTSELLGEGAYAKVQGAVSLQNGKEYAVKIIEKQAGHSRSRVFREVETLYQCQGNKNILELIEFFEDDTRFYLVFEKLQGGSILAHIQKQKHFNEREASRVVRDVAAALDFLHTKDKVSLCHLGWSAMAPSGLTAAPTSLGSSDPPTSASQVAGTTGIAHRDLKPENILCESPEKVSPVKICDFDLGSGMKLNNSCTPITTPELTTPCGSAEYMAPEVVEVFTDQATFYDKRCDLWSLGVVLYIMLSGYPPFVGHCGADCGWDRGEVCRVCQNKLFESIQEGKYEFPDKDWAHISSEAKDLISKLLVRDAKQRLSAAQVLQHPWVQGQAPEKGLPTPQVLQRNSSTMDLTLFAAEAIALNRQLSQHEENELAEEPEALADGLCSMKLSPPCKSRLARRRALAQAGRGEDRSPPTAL

| Compound | tested on | assay | test system | setting | scale | measurement | result |
| --- | --- | --- | --- | --- | --- | --- | --- |
| CCc1nccnc1C | – | – | human, water | – | – | odour detection threshold | 130 µg/kg |
| CC1(C)S[C@@H]2[C@H](NC(=O)[C@H](N)c3ccccc3)C(=O)N2[C@H]1C(=O)O | Enterobacter cloacae | – | clinical isolate RKI-No_287/13 | – | – | MIC | > 16 µg/mL |
| C=CC(=O)NC1CCN(c2ncc3ncnc(Nc4ccc(Oc5ccc6c(c5)ncn6C)c(C)c4)c3n2)CC1 | – | – | HER2-mutant NSCLC patients, phase Ib | oral, 120 mg once daily, centrally confirmed | – | objective response rate | 71% |
| Nc1cc(C(F)(F)F)c(-c2nc(N3CCOCC3)nc(N3CCOCC3)n2)cn1 | MAP kinase-interacting serine/threonine-protein kinase 1 (MKNK1, Homo sapiens, UniProt Q9BUB5) | enzyme activity | – | 10 µM | baseline: untreated | remaining activity | 100% |
| CCc1cc2c(cc1CC)CC(NC[C@H](O)c1ccc(O)c3[nH]c(=O)ccc13)C2 | – | – | COPD patients | inhaled, 75 µg once daily, 24 h postdose, dosing day 1 | baseline: baseline | placebo-corrected trough FEV1 change | 85 mL |
| CC(=O)O[C@@]12CO[C@@H]1C[C@H](O)[C@@]1(C)C(=O)[C@H](O)C3=C(C)[C@@H](OC(=O)[C@H](O)[C@@H](NC(=O)OC(C)(C)C)c4ccccc4)C[C@@](O)([C@@H](OC(=O)c4ccccc4)[C@H]21)C3(C)C | – | – | human, advanced NSCLC, after chemotherapy and checkpoint inhibitor | dose not given | – | radiographic response rate | < 15% |
| COC[C@@H](c1ccc(C(F)(F)F)cc1)N1CCN(C2(C)CCN(C(=O)c3c(C)ncnc3C)CC2)C[C@@H]1C | – | – | treatment-naive HIV subjects | 50 mg once daily, day 14, monotherapy without ritonavir | – | HIV RNA reduction | 1.18 log10 copies/mL |
| C[N+]1(C)CCC(OC(=O)C(O)(c2ccccc2)C2CCCC2)C1 (centres unmarked) | – | – | COPD patients | inhaled, 25 µg once daily, 24 h postdose, dosing day 1 | baseline: baseline | placebo-corrected trough FEV1 change | 53 mL |
| CCc1nccnc1OC | – | – | human, water | – | – | odour detection threshold | 0.43 µg/kg |
| CNC(C)C1CCC(N)C(OC2C(N)CC(N)C(OC3OCC(C)(O)C(NC)C3O)C2O)O1 (centres unmarked) | Enterobacter cloacae | – | clinical isolate RKI-No_5/14 | – | – | MIC | 2 µg/mL (≈ 4.19 µM) |
| C=C1[C@H](CO)[C@@H](O)C[C@@H]1n1cnc2c(=O)[nH]c(N)nc21 | – | – | chronic hepatitis B patients | dose not given, 6 months, added: lamivudine | baseline: baseline | HBsAg reduction | 0.06 log10 IU/mL |
| CC(F)(F)c1cc(F)ccc1-c1sc2cc(O)ccc2c1Oc1ccc(/C=C/C(=O)O)cc1 | – | – | MCF7, mouse, MCF7 orthotopic xenograft | 20 mg/kg once daily | – | duration of tumour stasis | 48 days |
| CC1(C)CCC(CN2CCN(c3ccc(C(=O)NS(=O)(=O)c4ccc(NCC5CCOCC5)c([N+](=O)[O-])c4)c(Oc4cnc5[nH]ccc5c4)c3)CC2)=C(c2ccc(Cl)cc2)C1 | – | – | human, AML | concentration not given, added: low-dose cytarabine | – | complete remission rate | 21% |
| Cc1ccc(C)c(OCCCC(C)(C)C(=O)O)c1 | – | – | HIV-negative hypertriglyceridemic individuals, plasma | 600 mg once daily, 9 weeks, range over individuals | – | triglyceride change | -34 to 14% |
| C[C@H](O)C(=O)C1=Nc2c(nc(N)[nH]c2=O)NC1 | – | – | human PKU patients | oral, dose not given, phase II/III trial | – | blood phenylalanine | decreased |
| CC/C(=C(\c1ccccc1)c1ccc(OCCN(C)C)cc1)c1ccccc1 | – | – | high-risk women | dose not given, prevention setting | – | breast cancer risk reduction | 43% |
| Nc1cccc2c1C(=O)N(C1CCC(=O)NC1=O)C2=O (centres unmarked) | – | – | relapsed refractory multiple myeloma patients | dose not given, independent adjudication | – | progression-free survival | 2.5 months |
| CC(C)(CO)c1cc2cc(NC(=O)C3(c4ccc5c(c4)OC(F)(F)O5)CC3)c(F)cc2n1C[C@@H](O)CO | – | sweat chloride reduction | human cystic fibrosis patients | clinical exposure-response | – | EC50 | 0.5 µg/mL (≈ 0.961 µM) |
| COC(=O)C1=C(C)NC(C)=C(C(=O)OC)C1c1c(-c2ccc(OC)c(OC)c2)nc2sccn12 | – | calcium-induced contraction | guinea pig aortic strip | 50 µM, added: K+ 80 mM depolarisation | – | inhibition | 15 ± 0.9% |
| CC[C@@H]1CN(C(=O)NCC(F)(F)F)C[C@@H]1c1cnc2cnc3[nH]ccc3n12 | – | – | rheumatoid arthritis patients | 15 mg | – | ACR20 response rate | 70.5% |
| CN(C)c1ccc2c(c1)C#Cc1ccc([N+](C)(C)C)cc1C#C2.O=C([O-])C(F)(F)F | – | SPAAC cycloaddition, substrate, UV spectroscopy | methanol | room temperature, mean of 2 runs, added: benzyl azide 100 mM | – | second-order rate constant | 0.097 M⁻¹ s⁻¹ and 0.0974 M⁻¹ s⁻¹ |
| CC(=O)Oc1ccc(C(c2ccc(OC(C)=O)cc2)c2ccccn2)cc1 | – | mitochondrial membrane potential disruption, Tox21 HTS | – | – | – | AC50 | 8.7 µM |
| COc1cccc2c1C(=O)c1c(O)c3c(c(O)c1C2=O)C[C@@](O)(C(=O)CO)C[C@@H]3O[C@H]1C[C@H](N)[C@H](O)[C@H](C)O1 | – | – | human epithelioid sarcoma patients | dose not given | – | overall response rate | 0 to 22% |

Excerpt of the above:
| Compound | tested on | assay | test system | setting | scale | measurement | result |
| --- | --- | --- | --- | --- | --- | --- | --- |
| Nc1cc(C(F)(F)F)c(-c2nc(N3CCOCC3)nc(N3CCOCC3)n2)cn1 | MAP kinase-interacting serine/threonine-protein kinase 1 (MKNK1, Homo sapiens, UniProt Q9BUB5) | enzyme activity | – | 10 µM | baseline: untreated | remaining activity | 100% |
